Assay results from different studies.
Each numbered part is a random draw from the data of one study; scales do not carry over between parts. Changes are numbered by the printed parent chain.

Block 1
Target: CCNB3, cyclin fold, Cln2 fusion (human)
Technique: yeast growth competition, sequencing
Sample: yeast
Notes: strong parent motif
Reference: not given
Reading: higher = stronger binding
Parent: viral docking peptide; YKVKRRLVFGADD; partner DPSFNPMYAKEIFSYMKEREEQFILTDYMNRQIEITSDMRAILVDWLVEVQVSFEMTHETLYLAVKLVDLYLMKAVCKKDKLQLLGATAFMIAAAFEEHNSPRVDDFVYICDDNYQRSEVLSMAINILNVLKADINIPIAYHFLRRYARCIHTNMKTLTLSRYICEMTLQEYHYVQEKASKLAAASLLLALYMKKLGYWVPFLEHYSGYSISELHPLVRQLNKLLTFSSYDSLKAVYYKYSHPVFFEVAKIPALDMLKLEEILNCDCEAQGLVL
Variant | normalised enrichment score
YKVKERLVFGADD [R5E] | 0.184
YKVKRRWVFGADD [L7W] | 0.542
YKVKWRLVFGADD [R5W] | 0.289
YKVKKRLVFGADD [R5K] | 0.772
YKVKRRLVFGDDD [A11D] | 2.65
YKVKRRLVFYADD [G10Y] | 1.16
YIVKRRLVFGADD [K2I] | 1.45
YKGKRRLVFGADD [V3G] | -0.0566
YKVKMRLVFGADD [R5M] | 0.277
YKVKRKLVFGADD [R6K] | 2.46
YKVKRRNVFGADD [L7N] | 0.389
YKVKRRLVFGAWD [D12W] | 0.705
YKVKRLLVFGADD [R6L] | 0.813
YKVKRRLTFGADD [V8T] | 1.69
YKVKRRAVFGADD [L7A] | -0.156
YKVKRRLVWGADD [F9W] | 0.796
YKVERRLVFGADD [K4E] | -0.163
YKVKRRLSFGADD [V8S] | 2.13
YKVKRRLVTGADD [F9T] | 0.214
YKSKRRLVFGADD [V3S] | 0.141
YKVKRRLVEGADD [F9E] | 0.132
YKVKRMLVFGADD [R6M] | 0.807
YKVKRNLVFGADD [R6N] | 0.44
YKVKRRLVDGADD [F9D] | 0.0678

Block 2
Target: Dual specificity tyrosine-phosphorylation-regulated kinase 1B (DYRK1B, Homo sapiens, UniProt Q9Y463)
Observed: enzyme activity
Action: inhibitor
Technique: radiometric
Concentration: 0.5 µM
SMILES | remaining activity [%]
COc1cc2ncnc(N3CCN(C(=O)Nc4ccc(Oc5ccccc5)cc4)CC3)c2cc1OC | 93.5
Nc1[nH]nc2nnc(-c3c(-c4ccccc4)nn4ccccc34)cc12 | 101
CC(C)[C@H](CO)Nc1nc(Nc2cccc(Cl)c2)c2ncn(C(C)C)c2n1 | 49.9
COc1cc2ncc(-c3ccccc3)nc2cc1OC | 110
Cc1ccc(NC(=O)c2ccc(CN3CCN(C)CC3)cc2)cc1Nc1nccc(-c2cccnc2)n1 | 97.9
CC(=O)O/N=C1/C(c2c(O)[nH]c3cc(Br)ccc23)=Nc2ccccc21 | 96

Block 3
Target: ABI1, truncated, D143A, DHFR fusion (Arabidopsis thaliana)
Technique: DHFR PCA, deep sequencing
Sample: yeast
Notes: methotrexate growth selection, single substitutions
With: (+)-ABA 4.8 µM
Reference: wild-type fitted maximum
Reading: higher = stronger binding
Parent: PYL1, truncated, DHFR fusion (Arabidopsis thaliana); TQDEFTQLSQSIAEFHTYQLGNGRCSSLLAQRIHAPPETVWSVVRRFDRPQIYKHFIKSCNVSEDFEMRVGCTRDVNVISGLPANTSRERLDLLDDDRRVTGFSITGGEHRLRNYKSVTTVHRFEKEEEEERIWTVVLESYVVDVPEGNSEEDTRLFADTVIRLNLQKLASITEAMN; partner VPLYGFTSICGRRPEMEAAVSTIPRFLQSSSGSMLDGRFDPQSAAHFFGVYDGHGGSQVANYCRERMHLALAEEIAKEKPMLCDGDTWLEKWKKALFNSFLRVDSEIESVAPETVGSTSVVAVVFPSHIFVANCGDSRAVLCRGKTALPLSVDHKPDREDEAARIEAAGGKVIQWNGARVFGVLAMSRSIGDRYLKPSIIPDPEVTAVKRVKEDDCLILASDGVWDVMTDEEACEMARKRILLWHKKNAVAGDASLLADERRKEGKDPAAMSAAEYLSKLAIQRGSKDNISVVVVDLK
Variant | relative binding score
D92S | 10%
T106C | 57.5%
R32C | 55.3%
R46M | 46.9%
N61A | 77%
Y18H | 81.9%
K168I | 19%
E14D | 55.8%

Block 4
Target: ATP-dependent RNA helicase DDX3X, helicase core (DDX3X, Homo sapiens, UniProt O00571, residues 132-607)
Chain of UniProt O00571 (132-607, looked up): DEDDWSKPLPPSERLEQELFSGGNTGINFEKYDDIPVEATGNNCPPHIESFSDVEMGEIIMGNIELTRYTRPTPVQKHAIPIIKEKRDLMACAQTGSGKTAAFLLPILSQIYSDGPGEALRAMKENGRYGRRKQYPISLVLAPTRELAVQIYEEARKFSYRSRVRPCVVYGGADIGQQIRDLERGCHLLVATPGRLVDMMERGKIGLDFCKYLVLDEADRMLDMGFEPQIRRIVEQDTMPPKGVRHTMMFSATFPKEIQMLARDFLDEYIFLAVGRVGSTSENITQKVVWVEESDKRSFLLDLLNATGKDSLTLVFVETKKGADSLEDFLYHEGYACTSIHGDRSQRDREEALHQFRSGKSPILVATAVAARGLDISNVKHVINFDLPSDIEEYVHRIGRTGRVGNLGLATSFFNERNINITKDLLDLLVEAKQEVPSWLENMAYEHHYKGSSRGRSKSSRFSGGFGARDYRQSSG
Technique: RNA Bind-n-Seq
Form: RNA
Sample: in vitro
Concentration: 90 pmol
Notes: 4-mer, random 30-nt RNA, single round
With: 3 µM DMDA-PatA, 2 mM ADP, 2 mM phosphate
Reference: input library
Reading: higher = stronger binding
Sequence | 4-mer enrichment [fold]
UGUU | 1.06
CCAA | 1.05
UAAG | 1.19
GCUG | 0.813
UAUA | 1.06
CAUU | 0.925
GAAC | 0.908
UCUG | 0.821

Block 5
Target: Phosphate system positive regulatory protein PHO4, full length, GST-tagged (PHO4, Saccharomyces cerevisiae, UniProt P07270, residues 1-312)
Technique: competition protein-binding microarray
Form: double-stranded DNA, one strand shown
Sample: in vitro
Concentration: 2 µM
Notes: whole 60-bp probe, lowest competitor level
With: Cbf1 competitor, 0.05 µM
Reading: higher = stronger binding
Residues (chain): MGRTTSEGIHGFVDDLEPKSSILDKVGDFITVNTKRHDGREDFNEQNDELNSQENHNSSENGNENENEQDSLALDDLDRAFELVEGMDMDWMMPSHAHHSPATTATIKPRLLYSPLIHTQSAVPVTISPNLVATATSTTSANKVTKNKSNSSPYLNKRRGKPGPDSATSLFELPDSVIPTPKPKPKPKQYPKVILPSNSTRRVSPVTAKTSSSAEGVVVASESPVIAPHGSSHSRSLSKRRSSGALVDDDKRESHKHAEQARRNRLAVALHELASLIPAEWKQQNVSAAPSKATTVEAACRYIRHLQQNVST
Sequence | fluorescence intensity
GCGGTCCCTGTCCTGCACACTGCACTCAACACCATAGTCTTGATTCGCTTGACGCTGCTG | 6230 a.u.
CTTCTGTAAATTTGGGCTGTGGGTGGACGCGCCCCGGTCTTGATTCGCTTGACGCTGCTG | 4790 a.u.
GAAGTAAGTTTTCCGCACGTAAAACTACTACAACAAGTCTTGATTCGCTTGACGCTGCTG | 4460 a.u.
GTCCGAAAGGACAATCACATGCAGAGGTTCAAAGTAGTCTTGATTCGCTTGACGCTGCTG | 8190 a.u.
GTCTTGTCTCATTGCGCAGTGGGTGTCCCCACTTCAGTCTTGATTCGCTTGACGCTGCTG | 4170 a.u.
CCTGCACCGACTCCGTGCGTGCGGAATTGGTAATGCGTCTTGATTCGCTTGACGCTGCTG | 9350 a.u.
AATTTTTACGCTCCACACGTCATCGACATCTAAATAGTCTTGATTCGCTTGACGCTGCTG | 5830 a.u.
TCATAGAGACTTCCACGCGTGGCAAGGTGATTGGCCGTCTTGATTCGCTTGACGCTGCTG | 9340 a.u.

Some of these lines once more (block 4):
Sequence | 4-mer enrichment [fold]
UAUA | 1.06
GAAC | 0.908
UAAG | 1.19
GCUG | 0.813
